Experimental data of several laboratories.
Each line is one published result; not all experiments were run side by side.
Organism: Escherichia coli

`CC[C@H](C)[C@H](NC(=O)[C@H](CCCNC(=N)N)NC(=O)[C@H](CCC(N)=O)NC(=O)[C@@H](NC(=O)[C@@H](NC(=O)[C@H](CCCNC(=N)N)NC(=O)[C@@H](N)CCCCN)[C@@H](C)CC)C(C)C)C(=O)N[C@@H](CCCCN)C(=O)N[C@@H](CC(=O)O)C(=O)N[C@@H](Cc1ccccc1)C(=O)N[C@@H](CC(C)C)C(=O)N[C@@H](CCCNC(=N)N)C(N)=O` has an MIC of 40 µM (broth microdilution; ATCC 25922; 15 h, 37 °C).
The MIC of `CC[C@H](C)[C@H](NC(=O)[C@H](CCN)NC(=O)CCCCCCCCCCCNC(=O)CCCCCOC(=O)c1cn(C2CC2)c2cc(N3CCNCC3)c(F)cc2c1=O)C(=O)N[C@@H](CCN)C(=O)N[C@H](Cc1ccccc1)C(=O)N[C@@H](CC(C)C)C(=O)N[C@@H](CCN)C(=O)N[C@@H](C(=O)N[C@@H](CC(C)C)C(=O)N[C@@H](CO)C(N)=O)C(C)C` is reported as 1.56 µM (24 h, 37 °C).
For `CCO[C@H]1[C@H](O)[C@@H](N)[C@@H](O[C@H]2[C@H](O[C@@H]3O[C@H](CO)[C@@H](O[C@H]4O[C@@H](CN)[C@@H](O)[C@H](O)[C@H]4N)[C@H]3O)[C@@H](O)[C@H](N)C[C@@H]2N)O[C@@H]1CO`, the MIC was 64 µg/mL (broth microdilution; clinical isolate AG 001).
The MIC of `Cc1ccc(SCC2OC(OC3C(N)CC(N)C(OC4OC(CN)C(O)CC4N)C3O)C(O)C(N)C2O)cc1` (stereo not shown) is reported as 18.8 µg/mL (BL21(DE3)).
With `Cc1cc(N)c2cc(NC(=O)c3ccc4c(-c5ccccc5O)cccc4c3)ccc2n1` the MIC was 6.25 µM (ΔtolC efflux-deficient).
The MIC of `CCCCCCCCCCCCCCCCCC(=O)N[C@@H](CCCCN)C(=O)N[C@@H](CCCCN)C(=O)N[C@@H](CCCCN)C(=O)N[C@@H](CCCCN)C(=O)N[C@@H](CCCCN)C(N)=O` is reported as 4 µg/mL (broth microdilution; K12; 16-24 h, 37 °C, prepared at pH 7).
`O=C(NCCNCCO)c1cn(Cc2ccccc2)c2cc(OCc3ccc(C(F)(F)F)cc3)c(Cl)cc2c1=O` gave an MIC of greater than 32 µg/mL (ATCC 25922; ≥80% growth inhibition).
The MIC of `Cc1cccc(-c2nc(Nc3ccncn3)c3c(C)csc3n2)n1` is reported as greater than 64 µM (broth microdilution; 3).
Under MIC, `CCCCCCCCCCCCCCCCN(C)[C@H](CO)C(=O)N[C@H](C)C(=O)NCC(=O)N(C)[C@@H]1C(=O)N[C@@H](C)C(=O)N[C@H](C(=O)O)Cc2ccc(O)c(c2)-c2cc1ccc2O` is recorded as “inactive” (broth microdilution; MG1655 wild type; 24 h, 37 °C, inactive).
`CC[C@@H](C)[C@@H](NC(=O)[C@@H](C)NC(=O)[C@H](NC(=O)[C@@H](CC(=O)O)NC(=O)[C@@H](CCCCN)NC(=O)[C@@H](CO)NC(=O)[C@H](NC(=O)[C@@H](CC(N)=O)NC(=O)[C@@H](C)NC(=O)[C@H](NC(=O)[C@@H](CCC(=O)O)NC(=O)[C@@H](CCCCN)NC(=O)[C@H](NC(=O)[C@H](NC(=O)[C@@H](Cc1c[nH]cn1)NC(=O)[C@@H](CCCCN)NC(=O)[C@H](NC(=O)[C@@H](CCCCN)NC(=O)[C@@H](CCCCN)NC(=O)[C@H](NC(=O)[C@@H](CC(C)C)NC(=O)[C@@H](CCCCN)NC(=O)[C@@H](CC(N)=O)NC(=O)[C@@H](Cc1ccccc1)NC(=O)[C@@H](CCCNC(=N)N)NC(=O)[C@@H](CCCCN)NC(=O)[C@@H](CCCNC(=N)N)NC(=O)[C@@H](Cc1ccccc1)NC(=O)CN)C(C)C)C(C)C)[C@H](C)O)[C@H](C)CC)[C@H](C)O)C(C)C)C(C)C)C(=O)N[C@@H](C(=O)N[C@H](C)C(=O)NCC(=O)N[C@H](CO)C(=O)NCC(=O)N[C@@H](C(=O)N[C@H](C)C(=O)N[C@@H](C(=O)NCC(=O)N[C@H](C)C(=O)N[C@H](C)C(=O)N[C@H](CCSC)C(N)=O)C(C)C)C(C)C)C(C)C` has an MIC of 16 µg/mL (broth microdilution; ATCC 25922, CAMHB).
`CC[C@H](C)[C@H](N)C1=N[C@H](C(=O)N[C@@H](CC(C)C)C(=O)N[C@H](CCC(=O)O)C(=O)N[C@@H](Cc2ccccc2)C(=O)N[C@H]2CCCCNC(=O)[C@H](CC(N)=O)NC(=O)[C@@H](CC(=O)O)NC(=O)[C@H](Cc3c[nH]cn3)NC(=O)[C@@H](Cc3ccccc3)NC(=O)[C@H]([C@@H](C)CC)NC(=O)[C@@H](CCCN)NC2=O)CS1` gave an MIC of greater than 64 µg/mL (broth microdilution; ATCC 25922, LB medium; 18 h, 37 °C, added: ZnSO4 0.3 mM).
`CCCCCCCCCCCC[S+]([O-])CC1OC(OC2C(N)CC(N)C(OC3OC(CN)C(O)CC3N)C2O)C(O)C(N)C1O` (mixture of isomers) gave an MIC of 18.8 µg/mL (MC1061).
The MIC of `CC(C)C[C@@H]1NC(=O)[C@H](C)NC(=O)[C@H](NC(=O)[C@@H](N)COC(=O)[C@@H](C)NC(=O)[C@@H](CC(C)C)NC(=O)[C@@H](N)Cc2ccccc2)[C@H](C(N)=O)OC(=O)[C@H](CC(C)C)NC1=O` is reported as greater than 32 µg/mL (ATCC 10798; TFA salt).
With `CC[C@H](C)[C@H](NC(=O)[C@H](NC(=O)[C@@H](CCCNC(=N)N)NC(=O)[C@@H](N)COC(=O)[C@@H](NC(=O)[C@@H](Cc1ccccc1)NC)[C@@H](C)CC)[C@@H](C)CC)C(=O)N[C@@H](CO)C(=O)N[C@H]1C(=O)N[C@@H](C)C(=O)N[C@@H](CC(C)C)C(=O)N[C@@H]([C@@H](C)CC)C(=O)O[C@H]1C` the MIC was greater than 8 µg/mL (broth microdilution; ATCC 10798, Mueller-Hinton broth; 16 h, 37 °C).
`CCn1cc(C(=O)NCCCCCC(=O)N[C@@H](CCCNC(=N)N)C(=O)N[C@@H](CCCNC(=N)N)C(=O)N[C@@H](Cc2c[nH]c3ccccc23)C(=O)N[C@@H](CCC(N)=O)C(=O)N[C@@H](Cc2c[nH]c3ccccc23)C(=O)N[C@@H](CCCNC(=N)N)C(N)=O)c(=O)c2cc3c(cc21)OCO3` has an MIC of 75 µM (broth microdilution; ATCC 25922; 24 h, 37 °C).
With `CCCCCCCCCCCCCCC(=O)N[C@@H](CCCCN)C(=O)N[C@@H](CCCCN)C(=O)N[C@@H](CCCCN)C(=O)N[C@@H](CCCCN)C(=O)N[C@@H](CCCCN)C(N)=O` the MIC was 64 µg/mL (broth microdilution; K12, water pH 7; 18 h, 37 °C).
`CCCCCCCCCCCCCCCCCCCCCCSCC1OC(OC2C(N)CC(N)C(OC3OC(CN)C(O)CC3N)C2O)C(O)C(N)C1O` (stereo not shown) gave an MIC of greater than 150 µg/mL (BL21(DE3) Eis-expressing).
For `CCn1c(-c2ccc(OC)cc2)c(-c2ccc(OC)cc2)n(Cc2c(C)cc(C)cc2C)c1=[Se+][Au-][P+](c1ccccc1)(c1ccccc1)c1ccccc1.[Cl-]`, the MIC was greater than 40 µM (broth microdilution; carbapenem-resistant BAA-2140; 24 h).
For `CCCCCCCCCCCCCC(=O)N[C@@H](Cc1ccccc1)C(=O)N[C@@H](CCCCN)C(=O)N[C@@H](CCCCN)C(=O)N[C@@H](CCCCN)C(=O)N[C@@H](CCCCN)C(N)=O`, the MIC was 16 µg/mL (broth microdilution; K12, water pH 7; 18 h, 37 °C).
For `CC(C)C[C@@H]1NC(=O)[C@@H](CC(C)C)NC(=O)[C@H](CCN)NC(=O)[C@@H](NC(=O)[C@H](CCN)NC(=O)[C@@H](N)[C@@H](C)O)CCNC(=O)[C@H]([C@@H](C)O)NC(=O)[C@H](CCN)NC(=O)[C@H](CCN)NC1=O`, the MIC was greater than 64 µg/mL (broth microdilution; NDM-1, CAMHB with polysorbate-80; 16 h).
`Cc1c2oc3c(C)ccc(C(=O)N[C@@H]4C(=O)N[C@H](C(C)C)C(=O)N5[C@H](C(=O)N(C)CC(=O)N(C)[C@@H](C(C)C)C(=O)O[C@@H]4C)[C@@H](O)C[C@@H]5C)c3nc-2c(C(=O)N[C@@H]2C(=O)N[C@H](C(C)C)C(=O)N3CC(=O)C[C@H]3C(=O)N(C)CC(=O)N(C)[C@@H](C)C(=O)O[C@@H]2CCl)c(N)c1=O` gave an MIC of greater than 9.2 µg/mL (broth microdilution; ATCC 12435; 16 to 48 h).
`CC(C)Oc1ccc(B(O)O)c(F)n1` gave an MIC of 256 µg/mL (bacterial growth; CTX-M-14 ESBL clinical isolate; cefotaxime alone).
For `C[C@@](O)(C(F)F)[C@H](NC(=O)c1ccc(C#CC#CC2CC2)cc1)C(=O)NO`, the MIC was 0.125 µg/mL (broth microdilution; W3110, CAMHB with 50% mouse plasma).
`CC1C(=NOCc2cc(-c3ccc(Cl)cc3)no2)C(C)C(c2ccc(Br)cc2)OC1c1ccc(Br)cc1` (stereo not shown) has an MIC of 12.5 µg/mL (microbial growth, broth dilution; MTCC443; 24 h).
With `CC(C)C[C@H](NC(=O)[C@H](CC(C)C)NC(=O)[C@H](CCCCN)NC(=O)[C@@H]1CCCN1C(=O)[C@H](CC(C)C)NC(=O)[C@H](CC(C)C)NC(=O)[C@H](CCCCN)NC(=O)[C@H](CC(C)C)NC(=O)[C@H](CC(C)C)NC(=O)[C@H](CO)NC(=O)CNC(=O)[C@H](CC(C)C)NC(=O)[C@@H](N)CC(C)C)C(N)=O` the MIC was 12.5 µM (broth microdilution; K12).

Excerpt of the above:
For `CC(C)C[C@@H]1NC(=O)[C@@H](CC(C)C)NC(=O)[C@H](CCN)NC(=O)[C@@H](NC(=O)[C@H](CCN)NC(=O)[C@@H](N)[C@@H](C)O)CCNC(=O)[C@H]([C@@H](C)O)NC(=O)[C@H](CCN)NC(=O)[C@H](CCN)NC1=O`, the MIC was greater than 64 µg/mL (broth microdilution; NDM-1, CAMHB with polysorbate-80; 16 h).
`Cc1c2oc3c(C)ccc(C(=O)N[C@@H]4C(=O)N[C@H](C(C)C)C(=O)N5[C@H](C(=O)N(C)CC(=O)N(C)[C@@H](C(C)C)C(=O)O[C@@H]4C)[C@@H](O)C[C@@H]5C)c3nc-2c(C(=O)N[C@@H]2C(=O)N[C@H](C(C)C)C(=O)N3CC(=O)C[C@H]3C(=O)N(C)CC(=O)N(C)[C@@H](C)C(=O)O[C@@H]2CCl)c(N)c1=O` gave an MIC of greater than 9.2 µg/mL (broth microdilution; ATCC 12435; 16 to 48 h).
`CC(C)Oc1ccc(B(O)O)c(F)n1` gave an MIC of 256 µg/mL (bacterial growth; CTX-M-14 ESBL clinical isolate; cefotaxime alone).
